Assay results from different studies.
Each numbered part is a random draw from the data of one study; scales do not carry over between parts.

Block 1
Target: Interferon regulatory factor 5, full length, phosphomimetic (IRF5, Homo sapiens, UniProt Q13568-2, residues 1-514, S451D/S453D/S456D/S462D)
Technique: protein-binding microarray
Form: double-stranded DNA, one strand shown
Matrix: in vitro
Tested at: 940 nM top
Notes: 60-bp whole probe
Added: salmon DNA 0.4 mg/ml
Relative to: random background probes
Reading: higher = stronger binding
Shared flanks, not repeated: GCCTAGCAC … GTCTTGATTCGCTTGACGCTGCTG
Oligonucleotide	fitted relative affinity [z-score]
GTCGATATCAGTCTCGAGACGTGCTAG	2.15
CACGGTTTCCTTTCCCTGACGTGCTAG	1.61
TTAGCTATCAGTCTCGATTAGTGCTAG	2.69
GACGATGTCAGACTGGAGACGTGCTAG	-0.345
TCAGGTTTCCAATCAGCACTGTGCTAG	0.657
GACGGTTTCGGGCTCGGGACGTGCTAG	7.66
AACGGTTTCGGGTATCGGGACGTGCTA	9.28
GACGATATCGGGTACCGAGACGTGCTA	-0.175
TTAGGTTTCGACTTTGGGTTAGTGCTA	8.57
GGGAATTTAGAAAATGGAAATGTGCTA	0.00924
TCAAACTTCTCCACTGAAACTGTGCTA	0.691
TCACCTTTTAAGTTCTCACTGTGCTAG	1.16
TTAGGTCTCGGTTTCGGTTAGTGCTAG	9.68
TCCATGCTGGCTTTTATGCGGTGCTAG	-0.795
GACGGACTGGGGACTGGGGAGGTGCTA	-0.183
GACGGTTCCCGTTTCCTGACGTGCTAG	0.42
TTAGGTCGCCTTCTCCTTTAGTGCTAG	0.194
TTAGGTATCGGTTTCGTTTAGTGCTAG	11.6
TCATCTCCCAAGTCTTGTACTGTGCTA	0.793

Block 2
Target: Hepatocyte nuclear factor 3-beta, forkhead domain (FOXA2, Homo sapiens, UniProt Q9Y261, residues 142-269)
Technique: protein-binding microarray
Form: double-stranded DNA, one strand shown
Matrix: in vitro
Tested at: not given
Notes: k-mer, scored over probes, only values ≥0.25
Reading: higher = stronger binding
Target sequence (chain): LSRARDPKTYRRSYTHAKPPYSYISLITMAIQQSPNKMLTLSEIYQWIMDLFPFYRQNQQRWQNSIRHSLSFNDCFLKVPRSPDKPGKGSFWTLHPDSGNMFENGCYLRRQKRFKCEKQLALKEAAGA
Oligonucleotide	E-score
ATAACAAT	0.322
CCAATAAC	0.259
ATGTTAAA	0.307
TACATTGA	0.257
AAACGTAT	0.257
AATACTAC	0.299
AACACAAT	0.343
GATGTTAC	0.255
GCATAACA	0.302
AAATATTA	0.304
CGATATTA	0.315
AAATATGT	0.407
AAACATAC	0.277
AACACAGT	0.292
ATATAGAC	0.346
ACTTGTAA	0.251
AATATGTG	0.372
GTAATACA	0.345
ACATAGCA	0.304
TAGTTACA	0.295
AGATACAA	0.345
TATTATAA	0.296
CTAACACA	0.298

Block 3
Target: Prothrombin, mature alpha-thrombin (F2, Homo sapiens, UniProt P00734)
Technique: aptamer microarray, sandwich
Form: DNA with 2'F-ANA
Matrix: in vitro
Tested at: 200 nM
Notes: whole 15-mer aptamer, many near background
Added: Cy3 exosite-II aptamer, 400 nM
Reading: higher = stronger binding
Oligonucleotide: GGTTGGTGTGGTTGG
Modification	mean fluorescence intensity [a.u.]
2'F-ANA at 1 5 7 10 12 14	43.9
2'F-ANA at 2 3 5 8 11 12 13 14 15	63.8
2'F-ANA at 1 5 6 7 8 11 14	47.2
2'F-ANA at 1 2 6 8 12 14 15	81.1
2'F-ANA at 1 3 6 8 9 13 14	79.8
2'F-ANA at 2 3 8 14 15	424
2'F-ANA at 1 2 3 4 5 10 14 15	49.3
2'F-ANA at 1 2 3 4 6 7 10 11 13 15	52.9
2'F-ANA at 2 3 5 7 15	105
2'F-ANA at 2 7 10 12 15	196
2'F-ANA at 2 4 5 7 8 9 10	48.1
2'F-ANA at 1 5 6 7 12 13 14	44.6
2'F-ANA at 4 5 9 12 14	48.7
2'F-ANA at 1 5 6 8 10 12 13 14 15	46.3
2'F-ANA at 1 2 3 4 6 7 9	132
2'F-ANA at 1 5 6 8 10 11 14 15	51.7

Block 4
Target: Sal-like protein 4, full length isoform A (SALL4, Homo sapiens, UniProt Q9UJQ4, residues 1-1053)
Chain of UniProt Q9UJQ4 (whole entry, looked up): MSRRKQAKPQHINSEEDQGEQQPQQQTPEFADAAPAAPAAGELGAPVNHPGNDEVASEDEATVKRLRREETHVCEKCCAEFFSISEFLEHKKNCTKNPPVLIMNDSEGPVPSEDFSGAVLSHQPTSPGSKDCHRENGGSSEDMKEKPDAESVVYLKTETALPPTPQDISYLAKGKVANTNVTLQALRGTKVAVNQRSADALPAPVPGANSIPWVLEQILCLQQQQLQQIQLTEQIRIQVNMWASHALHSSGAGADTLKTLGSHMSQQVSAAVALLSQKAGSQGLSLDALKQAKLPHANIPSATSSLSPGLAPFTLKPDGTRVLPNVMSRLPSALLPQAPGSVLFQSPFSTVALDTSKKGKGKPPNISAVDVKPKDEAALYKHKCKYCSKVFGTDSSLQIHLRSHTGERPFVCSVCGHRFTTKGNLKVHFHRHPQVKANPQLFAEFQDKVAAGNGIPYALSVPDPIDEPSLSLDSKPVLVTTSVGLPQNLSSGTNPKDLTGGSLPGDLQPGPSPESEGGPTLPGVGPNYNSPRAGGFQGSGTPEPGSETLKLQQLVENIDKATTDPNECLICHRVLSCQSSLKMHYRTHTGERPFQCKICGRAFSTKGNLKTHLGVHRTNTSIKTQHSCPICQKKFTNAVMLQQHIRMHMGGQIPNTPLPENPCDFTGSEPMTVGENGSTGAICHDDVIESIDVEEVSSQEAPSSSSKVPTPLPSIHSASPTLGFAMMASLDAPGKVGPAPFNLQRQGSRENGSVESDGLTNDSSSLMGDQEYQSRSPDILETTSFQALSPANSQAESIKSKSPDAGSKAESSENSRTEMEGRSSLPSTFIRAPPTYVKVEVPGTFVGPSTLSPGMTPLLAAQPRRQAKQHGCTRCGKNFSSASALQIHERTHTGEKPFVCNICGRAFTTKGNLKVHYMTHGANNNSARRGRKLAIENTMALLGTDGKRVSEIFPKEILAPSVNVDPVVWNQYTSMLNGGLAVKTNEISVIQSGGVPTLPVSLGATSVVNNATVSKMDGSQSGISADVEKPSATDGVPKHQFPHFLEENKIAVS
Technique: universal PBM
Form: double-stranded DNA, one strand shown
Matrix: in vitro
Tested at: 600 nM
Notes: 8-mer, flanks averaged, mean of replicates
Reading: higher = stronger binding
Oligonucleotide	E-score
AAAGTGTA	0.234
ATTATTGG	0.277
CATGGAAA	0.256
CGTATACC	-0.199
AAATTGGC	0.014
ACCCTCTG	-0.208
ACCACTTC	-0.0398
AGCTCAAG	-0.122
CTTCATAA	0.372
ACCCGGAC	-0.283
GTATTAAA	0.316
CGTGTCTA	-0.0215
CTACACGA	0.0716
CTCGACAC	-0.141
ACGCTCAG	-0.16
GATGGTCC	-0.307
GACATGGC	-0.0775
ACACACGC	0.06
ATAAGGAG	0.111
AGACGTCG	-0.166
CCGAATAA	0.226
GCAGCTCC	-0.259
CACAATCG	0.0506
AAATACTG	0.177
ACCTTCTG	0.0253

Block 5
Target: RNA binding protein fox-1 homolog 2, RRM domain, GST-SBP tag (RBFOX2, Homo sapiens, UniProt O43251-10, residues 100-194)
Technique: RNA Bind-n-Seq
Form: RNA
Matrix: in vitro
Tested at: 365 nM
Notes: natural RNA segment, single round, ends assumed
Relative to: no-protein control
Reading: higher = stronger binding
Shared flanks, not repeated: GGGAGUUCUACAGUCCGACGAUC … UGGAAUUCUCGGGUGCCAA
Target sequence (chain): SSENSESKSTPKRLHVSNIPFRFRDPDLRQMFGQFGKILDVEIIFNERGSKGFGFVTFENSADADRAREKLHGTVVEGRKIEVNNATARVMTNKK
Oligonucleotide	RBNS enrichment (R)
UACCCCCAUGAGGGGAUUCCCUUCCUUCUGUUGCUGGUGUACUCUAGGACUUCAAAGUGUGUCUGGGAUUUUUUUAUUAAAGAAAAAAAAUUUCUAGCUGUCCUUGCAGA	0.379
UUAUUUUUAUUUGCAAUCUCUAAAAACAAAUUUUAUUUCAAUUACGUCUUACUGAAGAAGUCUUUCCAGCUAGAAAGAUGUUCUGACACUGUCUGAUCGUGAAGCACCUG	0.404
UGGUUUUAGCUAUGCUUAUGAAAUUGAGAAACAAUUGCAAUGUUAAGAGUUUAUGUGAAGUAUACAUCUUUGUACUUGGAAGAGUCUAAGUUGUUUAUAUUUGGUAAAAG	0.492
AGGGCGACGACCCUCGCCGCGGGACCCGGGACUCGAGCCCGGGACUUCGCAGCUACAGCACAUCUAUUUUUAAUAUUGUGCUGAGCAAGACAGAUCGCUUGCAUAUUUUU	0.348
GUGAGGUGGGUGGAGACUCCUCGGAAGCCCCUGCUUCCAGAAAGCCUGGGAAGAACUGCCCUUCUGCAAAGGGGGGACUGCAUGGUUGCAUUUUCAUCACUGAAAGUCAG	10.7
GGCAGCACAGGACCACUUCAUGGCUGUCUAGUUAUGGUCCCUGGAGGGCUAUUUGCCCACCUUCACUCUCCCUGCCUUCCCUUCUGAGUUGUGGUAGAGCAAAGACCCAC	0.342
CUUCUUCACACCGGUACAUUCUCUGCAUCUGUUUAUAUGAAAUAACACAAGCUAAUCUGUACCUUUAUAUAUAUGUGUGUGUACAUAUAUACAUGUAUAAACUGUAUAGU	0.373
CUCUGAACGGUCGCCACCUCAGGGCAUUUUCCUGAGGCUCUGCUGCAAAAAAAAAAAAAAAAAUGAACACCGUGGACAACCCAGCCAGGCAGAGAGGCAGGCUGCCAGGC	0.628

For quick reference, copied from above (block 3):
Modification	mean fluorescence intensity [a.u.]
2'F-ANA at 1 5 6 7 12 13 14	44.6
2'F-ANA at 1 2 6 8 12 14 15	81.1
2'F-ANA at 1 5 6 8 10 12 13 14 15	46.3
2'F-ANA at 2 4 5 7 8 9 10	48.1
2'F-ANA at 1 2 3 4 6 7 10 11 13 15	52.9
2'F-ANA at 2 7 10 12 15	196
2'F-ANA at 1 5 7 10 12 14	43.9
2'F-ANA at 1 2 3 4 6 7 9	132
